Experimental data from different studies.
Compare with care: the assays were run in different laboratories. Numbers after ± are the reported error. Converted amounts (≈) assume the structure as drawn.
Organism: Staphylococcus epidermidis

| Structure (SMILES) | assay | system | setting | endpoint | result |
| --- | --- | --- | --- | --- | --- |
| NC(=S)n1nc(-c2ccccc2)cc1O | broth microdilution, agar subculture | ATCC 12228 | 24 h | MBC | 1000 µg/mL (≈ 4560 µM) |
| O=C(O)CCCN1C(=O)C(=C2C(=O)N(Cc3ccc(Cl)cc3)c3ccccc32)SC1=S | microbial growth | ATCC12228 | 6 h | IC50 | 15.7 µM |
| Cc1ccc(C(C)C)cc1.Cc1ccc(C(C)C)cc1.[Cl][Ru][Cl].[Cl][Ru][Cl] | broth microdilution, agar subculture | ATCC 12228 |  | MBC | > 1000 µg/mL |
| CCc1cc(=O)c2c(OCC(O)CNC(C)(C)C)c3ccoc3c(OC)c2o1 (stereo not shown) | broth microdilution | ATCC 35984 | 19 h, 35 °C | MIC | > 256 µg/mL |
| O=C(O)CN1C(=O)C(=C2C(=O)N(Cc3ccccc3Cl)c3ccccc32)SC1=S | microbial growth | ATCC12228 | 6 h | IC50 | 12 µM |
| Cc1cc(C)n(C(N)=S)n1.Cc1ccc(C(C)C)cc1.[Cl][Ru][Cl] | broth microdilution, agar subculture | ATCC 12228 |  | MBC | 125 µg/mL |
| CCc1cc(=O)c2c(OCC3CO3)c3ccoc3c(OC)c2o1 (stereo not shown) | broth microdilution | ATCC 35984 | 19 h, 35 °C | MIC | > 256 µg/mL |
| CCOC(=O)c1c(N)csc1-c1cn(-c2ccccc2)nc1-c1ccc(C)cc1 | broth microdilution | clinical urinary isolate | compound gamma-irradiated 15 kGy | MIC | 0.124 ± 0.3 µg/mL (≈ 0.307 µM) |
| CCc1cc(=O)c2c(OCC(O)CN3CCOCC3)c3ccoc3c(OC)c2o1 (stereo not shown) | broth microdilution | ATCC 35984 | 19 h, 35 °C | MIC | > 256 µg/mL |
| CN[C@H](CC(C)C)C(=O)N[C@H]1C(=O)N[C@@H](CC(N)=O)C(=O)N[C@H]2C(=O)N[C@H]3C(=O)N[C@H](C(=O)N[C@H](C(=O)O)c4cc(O)cc(O)c4-c4cc3ccc4O)[C@H](O)c3ccc(c(Cl)c3)Oc3cc2cc(c3O[C@@H]2O[C@H](CO)[C@@H](O)[C@H](O)[C@H]2O[C@H]2C[C@](C)(N)[C@H](O)[C@H](C)O2)Oc2ccc(cc2Cl)[C@H]1O |  | BHI agar | 48 h | MIC | 8 µg/mL (≈ 5.52 µM) |

Some of these lines once more:
| Structure (SMILES) | assay | system | setting | endpoint | result |
| --- | --- | --- | --- | --- | --- |
| CN[C@H](CC(C)C)C(=O)N[C@H]1C(=O)N[C@@H](CC(N)=O)C(=O)N[C@H]2C(=O)N[C@H]3C(=O)N[C@H](C(=O)N[C@H](C(=O)O)c4cc(O)cc(O)c4-c4cc3ccc4O)[C@H](O)c3ccc(c(Cl)c3)Oc3cc2cc(c3O[C@@H]2O[C@H](CO)[C@@H](O)[C@H](O)[C@H]2O[C@H]2C[C@](C)(N)[C@H](O)[C@H](C)O2)Oc2ccc(cc2Cl)[C@H]1O |  | BHI agar | 48 h | MIC | 8 µg/mL (≈ 5.52 µM) |
